Measured values of several laboratories.
Compare with care: the assays were run in different laboratories. Numbers after ± are the reported error.

SMILES | assay | system | setting | scale | endpoint | value
CCCC[C@H](NC(C)=O)C(=O)N[C@H]1CCC(=O)NC[C@@H](C(=O)N[C@@H](Cc2c[nH]c3ccccc23)C(N)=O)NC(=O)[C@H](CCCNC(=N)N)NC(=O)[C@@H](Cc2ccccc2)NC(=O)[C@H](Cc2c[nH]cn2)NC1=O | – | healthy volunteers, both sexes, plasma | subcutaneous, 3.0 mg once daily, day 1 | – | half-life, geometric mean | 9.5 h
C=CC(=O)N1CCC(CNc2ncnc(N)c2-c2ccc(Oc3ccccc3)cc2)CC1 | – | human, plasma | oral, 100 mg single dose, geometric mean | – | Vz/F | 850 L
CCCCCCCCCCCCCCC[C@H](O)[C@@H](N)CO | – | human, phase I, plasma | intravenous, 480 mg/m^2, day 1, monotherapy | – | AUC | 82.7 µM·h
CCOc1ccc2c(c1)C(C)=CC(C)(C)N2 | LC-MS/MS | piglets, kidney | oral, 50 mg/kg feed, 42 days | – | residue concentration | 4.9 ± 3.1 ng/g
C[C@@H](N)c1cc(Cl)ccc1Cn1c(=S)[nH]c(=O)c2[nH]ccc21 | – | healthy Japanese volunteers, plasma | oral, 5 mg once daily, day 1, geometric mean | – | AUC(0-tau) | 0.217 µM·h
Cc1ccc(C(=O)c2cc(O)c(O)c([N+](=O)[O-])c2)cc1 | parallel tube model | human | from oral clearance | – | intrinsic hepatic clearance | 4730 L/h
COCCCCn1c(C(=O)N(CC(C)C)[C@@H]2CNC[C@H](C(=O)N3CCOCC3)C2)nc2ccccc21 | – | non-elderly human, plasma | oral, 80 mg once daily, day 1 | – | AUC(0-tau) | 3730 ng·h/mL
O=C(NC[C@H]1CN(c2ccc(N3CCOCC3=O)cc2)C(=O)O1)c1ccc(Cl)s1 | – | moderate renal impairment patients | oral, 10 mg, arithmetic mean | – | renal clearance | 9.9 mL/min
CC[C@@]1(O)C(=O)OCc2c1cc1n(c2=O)Cc2cc3c(CN(C)C)c(O)ccc3nc2-1 | – | human patients, plasma | oral, 4 mg, geometric mean, with: pazopanib 800 mg | – | AUC(0-inf) | 102 ng·h/mL
Clc1ccc(COC(Cn2ccnc2)c2ccc(Cl)cc2Cl)cc1 (stereo not drawn) | cytochrome c release, ELISA | BALB/cByJ female mouse liver mitochondria | 30 min | reference: alamethicin maximal release | EC20 | 299 µM
Nc1nc(NC2CC2)c2ncn([C@H]3C=C[C@@H](CO)C3)c2n1 | – | HIV-infected children and adolescents, Tanner stage 1-2, plasma | oral, 8 mg/kg | – | CL/F | 22.1 mL/min/kg
CNC(=C[N+](=O)[O-])NCCSCc1ccc(CN(C)C)o1 | mitochondrial swelling | BALB/cByJ female mouse liver mitochondria | 30 min, with: succinate + rotenone | reference: CaCl2 maximal swelling | EC20 | > 400 µM
Cc1cc(SCc2cc(=O)[nH][nH]2)c(Cl)cc1Cl | – | human liver microsomes | 5 µM, pH 7.4, without NADPH | – | intrinsic clearance | 16.2 mL/min/kg
CC[C@H](C)[C@H](NC(=O)[C@H](CO)NC(=O)[C@H](Cc1ccc(O)cc1)NC(=O)[C@H](CC(=O)O)NC(=O)[C@H](CO)NC(=O)[C@@H](NC(=O)[C@H](Cc1ccccc1)NC(=O)[C@@H](NC(=O)CNC(=O)[C@H](CCC(=O)O)NC(=O)[C@H](C)NC(=O)[C@@H](N)Cc1ccc(O)cc1)[C@@H](C)O)[C@@H](C)CC)C(=O)N[C@@H](C)C(=O)N[C@@H](CCSC)C(=O)N[C@@H](CC(=O)O)C(=O)N[C@@H](CCCCN)C(=O)N[C@H](C(=O)N[C@@H](CCCNC(=N)N)C(=O)N[C@@H](CCC(N)=O)C(=O)N[C@@H](CCC(N)=O)C(=O)N[C@@H](CC(=O)O)C(=O)N[C@@H](Cc1ccccc1)C(=O)N[C@H](C(=O)N[C@@H](CC(N)=O)C(=O)N[C@@H](Cc1c[nH]c2ccccc12)C(=O)N[C@@H](CC(C)C)C(=O)N[C@@H](CC(C)C)C(=O)N[C@@H](C)C(=O)N[C@@H](CCC(N)=O)C(=O)N[C@@H](CCCNC(=N)N)C(=O)NCC(=O)N[C@@H](CCCCN)C(=O)N[C@@H](CCCCN)C(=O)N[C@@H](CO)C(=O)N[C@@H](CC(=O)O)C(=O)N[C@@H](Cc1c[nH]c2ccccc12)C(=O)N[C@@H](CCCCN)C(=O)N[C@@H](Cc1c[nH]cn1)C(=O)N[C@@H](CC(N)=O)C(=O)N[C@H](C(=O)N[C@H](C(=O)N[C@@H](CCC(N)=O)C(=O)O)[C@@H](C)O)[C@@H](C)CC)C(C)C)[C@@H](C)CC | radioimmunoassay, item: intact compound | C57BL/6 mice, female, fasted, plasma | intravenous, 25 nmol/kg | – | apparent half-life | ~1.5 min
Cc1cccc(Nc2ccccc2C(=O)O)c1C | cytochrome c release, ELISA | BALB/cByJ female mouse liver mitochondria | 30 min | reference: alamethicin maximal release | EC20 | > 200 µM

A few entries again:
SMILES | assay | system | setting | scale | endpoint | value
O=C(NC[C@H]1CN(c2ccc(N3CCOCC3=O)cc2)C(=O)O1)c1ccc(Cl)s1 | – | moderate renal impairment patients | oral, 10 mg, arithmetic mean | – | renal clearance | 9.9 mL/min
